Results of several laboratories.
Every numbered part comes from another study and shows a few of its results, in no order.
Chain of UniProt Q13976 (whole entry, looked up): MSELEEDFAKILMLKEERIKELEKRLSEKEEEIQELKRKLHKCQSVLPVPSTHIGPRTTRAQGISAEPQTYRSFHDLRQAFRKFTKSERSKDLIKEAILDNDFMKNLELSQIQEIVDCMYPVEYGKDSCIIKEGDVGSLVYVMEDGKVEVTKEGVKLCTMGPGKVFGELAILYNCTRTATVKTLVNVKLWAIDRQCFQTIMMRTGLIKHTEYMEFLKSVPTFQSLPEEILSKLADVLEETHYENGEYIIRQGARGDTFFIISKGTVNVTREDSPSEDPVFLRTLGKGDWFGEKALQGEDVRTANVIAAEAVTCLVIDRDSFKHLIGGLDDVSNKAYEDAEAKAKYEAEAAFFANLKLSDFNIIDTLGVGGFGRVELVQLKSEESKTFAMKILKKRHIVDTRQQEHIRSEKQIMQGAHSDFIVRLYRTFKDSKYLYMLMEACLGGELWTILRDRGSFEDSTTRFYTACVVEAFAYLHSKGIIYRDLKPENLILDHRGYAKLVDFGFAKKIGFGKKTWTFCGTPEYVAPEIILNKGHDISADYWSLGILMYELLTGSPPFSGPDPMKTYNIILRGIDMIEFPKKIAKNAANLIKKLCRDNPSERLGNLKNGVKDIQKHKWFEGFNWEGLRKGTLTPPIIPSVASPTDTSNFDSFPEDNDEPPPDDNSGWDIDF
Chain of UniProt O00750 (whole entry, looked up): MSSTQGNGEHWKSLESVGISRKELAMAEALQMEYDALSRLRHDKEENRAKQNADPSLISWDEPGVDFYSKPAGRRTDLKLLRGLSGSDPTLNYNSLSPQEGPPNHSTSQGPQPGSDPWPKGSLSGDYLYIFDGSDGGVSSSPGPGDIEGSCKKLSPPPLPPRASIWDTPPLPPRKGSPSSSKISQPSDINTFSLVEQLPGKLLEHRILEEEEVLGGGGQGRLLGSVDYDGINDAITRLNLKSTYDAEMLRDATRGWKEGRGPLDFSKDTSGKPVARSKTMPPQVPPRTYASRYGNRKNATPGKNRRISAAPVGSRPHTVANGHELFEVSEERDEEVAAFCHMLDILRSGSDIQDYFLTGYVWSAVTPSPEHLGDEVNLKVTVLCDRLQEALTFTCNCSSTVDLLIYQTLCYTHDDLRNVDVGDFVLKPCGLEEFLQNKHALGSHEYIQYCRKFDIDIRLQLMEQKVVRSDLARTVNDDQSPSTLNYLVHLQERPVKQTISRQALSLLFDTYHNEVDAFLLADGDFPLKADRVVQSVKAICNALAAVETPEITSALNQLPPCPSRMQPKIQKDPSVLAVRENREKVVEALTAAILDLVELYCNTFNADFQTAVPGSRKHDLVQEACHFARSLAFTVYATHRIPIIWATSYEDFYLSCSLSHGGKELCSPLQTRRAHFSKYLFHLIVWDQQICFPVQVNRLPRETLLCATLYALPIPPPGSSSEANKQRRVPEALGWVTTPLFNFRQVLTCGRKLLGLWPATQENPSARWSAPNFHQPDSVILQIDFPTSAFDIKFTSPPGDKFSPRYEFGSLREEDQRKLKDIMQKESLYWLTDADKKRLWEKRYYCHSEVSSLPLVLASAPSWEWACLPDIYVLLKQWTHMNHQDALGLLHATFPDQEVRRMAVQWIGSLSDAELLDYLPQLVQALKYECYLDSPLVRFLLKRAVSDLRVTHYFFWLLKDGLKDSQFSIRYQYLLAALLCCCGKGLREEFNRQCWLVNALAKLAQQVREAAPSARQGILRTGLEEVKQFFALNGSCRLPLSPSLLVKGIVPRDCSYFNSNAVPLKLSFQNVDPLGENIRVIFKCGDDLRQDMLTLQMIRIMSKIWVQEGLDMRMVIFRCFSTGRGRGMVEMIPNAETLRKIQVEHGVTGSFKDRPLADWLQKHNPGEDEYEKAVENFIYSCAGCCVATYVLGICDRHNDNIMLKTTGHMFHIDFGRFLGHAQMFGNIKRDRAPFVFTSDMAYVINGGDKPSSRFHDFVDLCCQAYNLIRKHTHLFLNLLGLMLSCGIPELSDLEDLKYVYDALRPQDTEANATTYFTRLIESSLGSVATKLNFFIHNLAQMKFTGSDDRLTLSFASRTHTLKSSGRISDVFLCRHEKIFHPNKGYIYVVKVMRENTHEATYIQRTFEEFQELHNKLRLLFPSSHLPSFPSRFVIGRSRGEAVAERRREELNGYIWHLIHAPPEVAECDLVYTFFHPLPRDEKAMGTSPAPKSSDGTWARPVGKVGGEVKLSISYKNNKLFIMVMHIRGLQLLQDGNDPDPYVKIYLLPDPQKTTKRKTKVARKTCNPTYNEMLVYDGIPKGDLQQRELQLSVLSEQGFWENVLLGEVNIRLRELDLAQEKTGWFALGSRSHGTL
Chain of UniProt Q05655 (whole entry, looked up): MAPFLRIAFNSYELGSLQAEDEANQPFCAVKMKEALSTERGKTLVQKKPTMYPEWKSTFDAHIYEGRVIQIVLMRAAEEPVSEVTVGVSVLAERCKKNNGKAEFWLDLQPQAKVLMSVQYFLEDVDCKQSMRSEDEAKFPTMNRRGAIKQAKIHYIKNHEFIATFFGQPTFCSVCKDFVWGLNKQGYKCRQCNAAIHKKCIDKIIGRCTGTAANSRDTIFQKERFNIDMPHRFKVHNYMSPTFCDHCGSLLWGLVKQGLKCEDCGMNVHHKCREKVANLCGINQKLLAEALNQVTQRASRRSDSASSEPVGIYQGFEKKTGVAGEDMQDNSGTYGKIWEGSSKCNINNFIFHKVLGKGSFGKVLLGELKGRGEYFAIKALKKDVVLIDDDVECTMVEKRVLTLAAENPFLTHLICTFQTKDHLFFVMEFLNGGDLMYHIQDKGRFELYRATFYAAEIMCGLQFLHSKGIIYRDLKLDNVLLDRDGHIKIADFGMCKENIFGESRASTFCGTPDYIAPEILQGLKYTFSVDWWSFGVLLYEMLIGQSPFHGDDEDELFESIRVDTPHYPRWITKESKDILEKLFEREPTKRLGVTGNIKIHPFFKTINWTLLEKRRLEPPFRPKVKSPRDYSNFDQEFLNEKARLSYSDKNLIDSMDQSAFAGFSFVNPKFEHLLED
Chain of UniProt P51957 (whole entry, looked up): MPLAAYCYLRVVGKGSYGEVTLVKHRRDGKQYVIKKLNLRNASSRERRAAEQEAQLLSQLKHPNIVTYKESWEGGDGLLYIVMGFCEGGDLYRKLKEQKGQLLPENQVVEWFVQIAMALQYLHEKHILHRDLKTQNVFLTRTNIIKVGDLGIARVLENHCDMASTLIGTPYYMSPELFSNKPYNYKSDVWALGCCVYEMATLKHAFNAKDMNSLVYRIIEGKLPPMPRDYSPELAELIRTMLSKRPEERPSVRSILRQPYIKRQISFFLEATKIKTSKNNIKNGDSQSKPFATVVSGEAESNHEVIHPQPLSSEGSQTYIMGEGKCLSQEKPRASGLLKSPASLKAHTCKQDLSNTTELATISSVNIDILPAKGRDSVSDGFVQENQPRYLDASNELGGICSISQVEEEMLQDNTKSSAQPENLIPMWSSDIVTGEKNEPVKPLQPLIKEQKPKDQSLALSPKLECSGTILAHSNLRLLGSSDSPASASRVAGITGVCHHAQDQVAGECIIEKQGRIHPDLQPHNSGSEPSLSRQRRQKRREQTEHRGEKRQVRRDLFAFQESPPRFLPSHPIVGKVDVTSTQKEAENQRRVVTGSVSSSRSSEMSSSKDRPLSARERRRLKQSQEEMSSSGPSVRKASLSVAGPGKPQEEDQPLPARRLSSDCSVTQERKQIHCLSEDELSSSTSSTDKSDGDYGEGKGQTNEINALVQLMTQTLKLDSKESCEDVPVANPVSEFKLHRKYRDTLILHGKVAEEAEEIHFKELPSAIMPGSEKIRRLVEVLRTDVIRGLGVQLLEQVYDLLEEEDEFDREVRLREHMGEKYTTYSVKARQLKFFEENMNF
Chain of UniProt Q12851 (whole entry, looked up): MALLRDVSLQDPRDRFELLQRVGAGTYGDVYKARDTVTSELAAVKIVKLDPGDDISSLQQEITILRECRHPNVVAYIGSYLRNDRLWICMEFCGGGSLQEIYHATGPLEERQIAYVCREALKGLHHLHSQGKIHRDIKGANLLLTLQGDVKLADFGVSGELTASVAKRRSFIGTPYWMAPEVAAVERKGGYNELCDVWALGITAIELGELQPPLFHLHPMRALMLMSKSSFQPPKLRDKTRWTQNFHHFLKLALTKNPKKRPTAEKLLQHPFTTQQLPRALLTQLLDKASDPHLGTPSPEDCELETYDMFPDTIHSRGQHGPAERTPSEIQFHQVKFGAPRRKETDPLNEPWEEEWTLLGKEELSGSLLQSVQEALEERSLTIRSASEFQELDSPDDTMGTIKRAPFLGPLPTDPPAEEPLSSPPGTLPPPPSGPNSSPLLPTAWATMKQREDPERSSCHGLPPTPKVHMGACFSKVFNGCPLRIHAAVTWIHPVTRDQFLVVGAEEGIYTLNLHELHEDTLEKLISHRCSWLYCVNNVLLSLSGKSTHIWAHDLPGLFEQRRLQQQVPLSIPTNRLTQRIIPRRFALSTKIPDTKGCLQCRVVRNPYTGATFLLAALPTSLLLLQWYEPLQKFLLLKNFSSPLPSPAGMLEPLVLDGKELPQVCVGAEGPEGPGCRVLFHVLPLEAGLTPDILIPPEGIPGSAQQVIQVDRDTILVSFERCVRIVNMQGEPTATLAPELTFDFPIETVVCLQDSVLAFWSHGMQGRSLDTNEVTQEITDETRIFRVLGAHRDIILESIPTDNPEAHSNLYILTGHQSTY
Chain of UniProt Q9NWZ3 (whole entry, looked up): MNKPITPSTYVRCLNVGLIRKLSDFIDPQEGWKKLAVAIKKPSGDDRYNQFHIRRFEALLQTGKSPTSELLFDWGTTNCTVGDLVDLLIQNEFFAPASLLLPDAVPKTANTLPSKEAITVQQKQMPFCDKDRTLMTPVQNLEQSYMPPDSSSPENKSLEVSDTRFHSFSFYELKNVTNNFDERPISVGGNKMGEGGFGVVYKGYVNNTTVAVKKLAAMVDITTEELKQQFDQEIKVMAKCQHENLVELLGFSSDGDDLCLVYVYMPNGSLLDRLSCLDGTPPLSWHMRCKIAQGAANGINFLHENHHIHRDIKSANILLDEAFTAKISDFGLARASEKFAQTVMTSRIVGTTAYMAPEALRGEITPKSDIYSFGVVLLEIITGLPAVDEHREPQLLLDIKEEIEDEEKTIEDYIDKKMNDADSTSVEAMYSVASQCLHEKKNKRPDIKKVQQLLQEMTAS

Sample 1 — method: competition with immobilised ligand; tested at: 1 µM; measurement: remaining binding
Compound: CCCCN(CCCC)C(=O)CN1C[C@H](c2cc(OC)c3c(c2)OCO3)[C@@H](C(=O)O)[C@@H]1CC(C)(C)CCC
Activated CDC42 kinase 1 (TNK2, Homo sapiens, UniProt Q07912); cell-free assay: 100%
Cyclin-dependent kinase 14 (CDK14, Homo sapiens, UniProt O94921); cell-free assay: 100%
Bone morphogenetic protein receptor type-1A (BMPR1A, Homo sapiens, UniProt P36894); binding: 86.9%
Dual specificity mitogen-activated protein kinase kinase 1 (MAP2K1, Homo sapiens, UniProt Q02750); cell-free assay: 64.8%
Epidermal growth factor receptor (EGFR, Homo sapiens, UniProt P00533, del747-752/P753S); cell-free assay: 79.8%
Tyrosine-protein kinase ABL1, non-phosphorylated (ABL1, Homo sapiens, UniProt P00519, F317L); cell-free assay: 100%
BDNF/NT-3 growth factors receptor (NTRK2, Homo sapiens, UniProt Q16620); cell-free assay: 62%
Phosphatidylinositol 4-phosphate 3-kinase C2 domain-containing subunit beta (PIK3C2B, Homo sapiens, UniProt O00750); cell-free assay: 65.9%
cGMP-dependent protein kinase 1 (PRKG1, Homo sapiens, UniProt Q13976); cell-free assay: 100%
Serine/threonine-protein kinase Sgk3 (SGK3, Homo sapiens, UniProt Q96BR1); cell-free assay: 75.7%

Sample 2 — organism: Sarcocystis neurona; read-out: parasite growth; tested at: 10 µM; time: 96 h; notes: first screen; baseline: untreated; measurement: log2 fold change
O=C(CCNNC(=O)c1ccncc1)NCc1ccccc1: 0.07
CNC(=C[N+](=O)[O-])NCCSCc1ccc(CN(C)C)o1: 0.31
CCC(=O)OCC(=O)[C@@]1(OC(=O)CC)[C@@H](C)C[C@H]2[C@@H]3CCC4=CC(=O)C=C[C@]4(C)[C@@]3(Cl)[C@@H](O)C[C@@]21C: 0.25
CC1(C)O[C@@H]2C[C@H]3[C@@H]4C[C@H](F)C5=CC(=O)C=C[C@]5(C)[C@H]4[C@@H](O)C[C@]3(C)[C@]2(C(=O)CO)O1: 0.39
COc1cc(C)nc(-n2nc(C)cc2OC)n1: -0.1

Sample 3 — read-out: enzyme activity; action: inhibitor; tested at: 0.5 µM; baseline: control; measurement: remaining activity
Compound: N#Cc1cnc2cnc(NCc3cccnc3)cc2c1Nc1ccc(F)c(Cl)c1
Tyrosine-protein kinase BTK (BTK, Homo sapiens, UniProt Q06187): 98.3%
Ephrin type-A receptor 5 (EPHA5, Homo sapiens, UniProt P54756): 90.6%
Mast/stem cell growth factor receptor Kit (KIT, Homo sapiens, UniProt P10721): 92.9%
Protein kinase C iota type (PRKCI, Homo sapiens, UniProt P41743): 94.7%
Protein kinase C delta type (PRKCD, Homo sapiens, UniProt Q05655): 95.2%
RAC-gamma serine/threonine-protein kinase (AKT3, Homo sapiens, UniProt Q9Y243): 95.1%
cGMP-dependent protein kinase 1 (PRKG1, Homo sapiens, UniProt Q13976): 90.8%
Leucine-rich repeat serine/threonine-protein kinase 2 (LRRK2, Homo sapiens, UniProt Q5S007): 86.6%
MAP kinase-interacting serine/threonine-protein kinase 2 (MKNK2, Homo sapiens, UniProt Q9HBH9): 79.3%
Interleukin-1 receptor-associated kinase 4 (IRAK4, Homo sapiens, UniProt Q9NWZ3): 100%
Casein kinase I isoform alpha (CSNK1A1, Homo sapiens, UniProt P48729): 101%
Serine/threonine-protein kinase PLK2 (PLK2, Homo sapiens, UniProt Q9NYY3): 110%
Mitogen-activated protein kinase kinase kinase kinase 2 (MAP4K2, Homo sapiens, UniProt Q12851): 72.2%
Serine/threonine-protein kinase Nek4 (NEK4, Homo sapiens, UniProt P51957): 71.7%
Serine/threonine-protein kinase 38 (STK38, Homo sapiens, UniProt Q15208): 93.9%
Mitogen-activated protein kinase 13 (MAPK13, Homo sapiens, UniProt O15264): 101%
Cyclin-dependent kinase 9, with cyclin T1 (CDK9, Homo sapiens, UniProt P50750): 91.2%
Tyrosine-protein kinase Lyn (LYN, Homo sapiens, UniProt P07948): 90.4%
Serine/threonine-protein kinase Chk1 (CHEK1, Homo sapiens, UniProt O14757): 90.2%
Serine/threonine-protein kinase WNK2 (WNK2, Homo sapiens, UniProt Q9Y3S1): 91.1%
Casein kinase II subunit alpha (CSNK2A1, Homo sapiens, UniProt P68400): 95.8%
Dual specificity mitogen-activated protein kinase kinase 6 (MAP2K6, Homo sapiens, UniProt P52564): 115%

Sample 4 — cell line: mouse MPNST tumor cells; method: high-content nuclear imaging; refers to: cell number; tested at: 10 µM; time: 12 h; notes: mean of 2 replicates; baseline: plate mean; direction: higher = more cells; measurement: nuclei count
C(=C\c1ccccc1)/CN1CCN(C(c2ccccc2)c2ccccc2)CC1: 3.24 z-score
C#C[C@]1(OC(C)=O)CC[C@H]2[C@@H]3CCC4=C[C@@H](OC(C)=O)CC[C@@H]4[C@H]3CC[C@@]21C: 0.148 z-score
C1CNCCN1: 1.79 z-score
O=[N+]([O-])c1cccc2c(Br)[nH]nc12: 1.72 z-score
Cc1cc(C)c(S(=O)(=O)Nc2cccc(C(F)(F)F)c2)c(C)c1: -0.339 z-score
O=C(CN1C2=NCCN2c2ccccc21)c1ccc(-c2ccccc2)cc1: -4.52 z-score
OC1(c2ccc(Cl)c(C(F)(F)F)c2)CCN(CCCC(c2ccc(F)cc2)c2ccc(F)cc2)CC1: -5.93 z-score
CCOc1ccccc1C(N)=O: -0.102 z-score
CN(C)CCC(c1ccc(Br)cc1)c1ccccn1 (centres unmarked): 1.39 z-score
N=C(N)SCCc1ccc(OCc2ccc([N+](=O)[O-])cc2)cc1: -2.24 z-score
